Experimental data from different studies.
± gives the spread as reported.

Compound | test | test system | conditions | how to read | endpoint | result
C[C@@H](NC(=O)N1C(=O)[C@H](Cc2ccnc(N)c2)[C@H]1C(=O)O)C1CCCCC1 | – | human | iv infusion, 0.3 mg/kg/h, 24 h | – | ACT AUEC | 16300 h·s
CN[C@@H]1COc2c(S(=O)(=O)NC(=O)Nc3c4c(cc5c3CCC5)CCC4)cnn2C1 | item: IL-1β | human participants, whole blood ex vivo | 150 mg single dose, 72 h, together with: LPS/ATP | relative to: baseline | inhibition | 6.3%
N#CCC1CCN(c2nc(Nc3ccc(N4CCC(O)CC4)cc3)c3c(=O)[nH]ncc3n2)CC1 | Olink multiplex, item: CD163 | human, serum | 40 mg, day 29 | relative to: baseline | fold change from baseline | -1.4
N#Cc1ccn2c(-c3ccncc3)c(-c3ccc(F)cc3)nc2c1 | kinase binding, competitor, MIB/MS competition, item: YAK1 | Candida albicans cell lysate | 100 nM | relative to: DMSO | log2 fold change | 0.41
C[C@H]1C[C@H]2CSC(N)=N[C@@]2(c2nc(NC(=O)c3ccc(OC(F)F)cn3)cs2)CO1 | item: Aβ1-40 | healthy adults, plasma | 400 mg single dose, 48 h post-dose | relative to: placebo | percent change from baseline | -86.1%
OC(CCN1CCCCC1)(c1ccccc1)C1CC2C=CC1C2 (centres unmarked) | resting-state EEG | healthy elderly humans | oral, 4 mg, eyes open, LS mean | – | gamma power, EEG, Pz-O1 | 0.9 µV²
COc1ccccc1[C@H](Cn1c(=O)n(C(C)(C)C(=O)O)c(=O)c2c(C)c(-c3ncco3)sc21)OC1CCOCC1 | – | human | 50 mg, post-treatment | – | blood ketones | 0.17 ± 0.048 mmol/L
CC(C)NCC(O)c1ccc(O)c(O)c1 (centres unmarked) | – | ventricular cardiomyocytes, C57BL/6 mouse | dose not given, 0.148 s | – | sarcomere length | 1.58 µm
C[C@H](Oc1ccc(Br)cc1-c1ccon1)C(=O)O | muscle velocity recovery cycles | human, tibialis anterior muscle | 400 mg twice daily, multiple doses, frequency ramp, last response at 30 Hz | relative to: placebo | peak amplitude change | -12.6%
Cc1cc(Nc2ccc(S(F)(F)(F)(F)F)cc2)n2nc(C(C)(F)F)nc2n1 | item: dihydroorotate | female CD-1 mice, pooled urine | oral, 300 mg/kg daily, 0-8 h after dose 1 | – | DHO concentration | 6.16 ± 0.0764 µM
Cc1n[nH]c2ccc(-c3cc(OC[C@@H](N)Cc4ccccc4)cnc3-c3ccoc3)cc12 | kinase binding, competitor, MIB/MS competition, item: HST7 | Candida albicans cell lysate | 1 µM | relative to: DMSO | log2 fold change | -0.0777
NC(=O)c1cnc2[nH]ccc2c1N[C@@H]1[C@@H]2CC3C[C@H]1C[C@@](O)(C3)C2 | flow cytometry, item: CD4+ effector T cells | Japanese healthy subjects, peripheral blood | oral, 100 mg twice daily, day 4 | – | change from baseline | -0.08%
O=C(O)CNC(=O)Cc1ccccc1 | – | ventricular cardiomyocytes, C57BL/6 mouse | dose not given, 0.712 s | – | sarcomere length | 1.72 µm
N#Cc1ccc2c(-c3ccncc3)c(-c3ccc(F)cc3)nn2c1 | kinase binding, competitor, MIB/MS competition, item: TOR1 | Candida albicans cell lysate | 10 µM | relative to: DMSO | log2 fold change | -0.443

Repeated from above:
Compound | test | test system | conditions | how to read | endpoint | result
Cc1n[nH]c2ccc(-c3cc(OC[C@@H](N)Cc4ccccc4)cnc3-c3ccoc3)cc12 | kinase binding, competitor, MIB/MS competition, item: HST7 | Candida albicans cell lysate | 1 µM | relative to: DMSO | log2 fold change | -0.0777
N#CCC1CCN(c2nc(Nc3ccc(N4CCC(O)CC4)cc3)c3c(=O)[nH]ncc3n2)CC1 | Olink multiplex, item: CD163 | human, serum | 40 mg, day 29 | relative to: baseline | fold change from baseline | -1.4
